# Measured values collected from several papers.
# Every numbered part comes from another study and shows a few of its results, in no order. Positions count from the first letter of the parent shown.

# Sample 1 — technique: protein-binding microarray; form: double-stranded DNA, one strand shown; sample: in vitro; concentration: 2540 nM top; setting: 60-bp whole probe; together with: salmon DNA 0.4 mg/ml; reference: random background probes; reading: higher = stronger binding; shared flanks, not repeated: GCCTAGCAC … GTCTTGATTCGCTTGACGCTGCTG
# Target: Interferon regulatory factor 3, full length, phosphomimetic (IRF3, Homo sapiens, UniProt Q14653, residues 1-427, S386D/S396D/S398D/S402D/T404D/S405D)
# Sequence of UniProt Q14653 (whole entry, unmodified, looked up): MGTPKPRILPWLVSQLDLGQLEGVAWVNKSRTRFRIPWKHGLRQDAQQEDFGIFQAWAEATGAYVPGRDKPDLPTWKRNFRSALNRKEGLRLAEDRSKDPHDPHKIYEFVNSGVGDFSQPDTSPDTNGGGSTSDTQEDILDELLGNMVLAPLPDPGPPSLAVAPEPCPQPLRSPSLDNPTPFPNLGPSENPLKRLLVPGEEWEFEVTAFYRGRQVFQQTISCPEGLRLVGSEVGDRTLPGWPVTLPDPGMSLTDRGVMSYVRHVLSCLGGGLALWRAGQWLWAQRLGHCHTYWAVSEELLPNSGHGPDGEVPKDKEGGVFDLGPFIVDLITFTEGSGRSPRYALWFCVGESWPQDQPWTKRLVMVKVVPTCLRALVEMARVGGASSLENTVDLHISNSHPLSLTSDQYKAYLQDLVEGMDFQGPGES
Sequence,fitted relative affinity
GACGACTTCAGACTGGAGACGTGCTAG,-0.268 z-score
TTCTATGTCTGTTTTTGCTTGTGCTAG,0.581 z-score
GACGGTCTCGGACTCGGGACGTGCTAG,0.506 z-score
GACGGTAGCGGGACTGGGGACGTGCTA,-0.722 z-score
TCACATATACACATCTTACTGTGCTAG,0.931 z-score
TTAGGACTGCTACTGCTTTAGTGCTAG,-0.704 z-score
TCAGGTTTACCAGATCATACTGTGCTA,0.653 z-score
TTAGGTGTCGGGTTTCGGTTAGTGCTA,3.6 z-score
TTGGGTATCGGACTGGGTTAGTGCTAG,0.185 z-score
TCATATCTAAGATTCTAACTGTGCTAG,0.915 z-score
TTAGGACTGCTTATCCTTTGGTGCTAG,-0.221 z-score
GACGATTTCTGTTCCGAGACGTGCTAG,3.52 z-score
TTAGAACTGAGATTCGATTAGTGCTAG,0.0618 z-score
TTATGACTGCTTTTCCTTTAGTGCTAG,0.868 z-score
AAGCAAGGTGGAGAAGAGAAGTGCTAG,-1.09 z-score
GACCATTTCGGGTTTCGAGACGTGCTA,3.02 z-score
GACGGTATACTTTTCCTGACGTGCTAG,1.16 z-score
TTCATTTTCTGAATGTCCTCGTGCTAG,2.34 z-score
GACGGTTTCGGGTATCGGAACGTGCTA,5.23 z-score

# Sample 2 — target: CCNA2, cyclin fold, Cln2 fusion (human); technique: yeast growth competition, sequencing; sample: yeast; setting: strong parent motif; reference: not given; reading: higher = stronger binding
# Starting sequence: ANKRD17 docking peptide (human); PSVRRQLFVTVVK
Variant,normalised enrichment score
PSVRKQLLVTVVK [R5K F8L],1.82
PSVRRALFVTVVK [Q6A],4.17
PSARRQLFVTVVK [V3A],5.77
PSVARQLFVTVVK [R4A],3.27
PSVRAQAFVTVVK [R5A L7A],0.612
PSVRRQLFVTAVK [V11A],5.76
PSVRRQAFVTVVK [L7A],1.58
PSVRRQLLVTVVK [F8L],0.741
ASVRRQLFVTVVK [P1A],4.63
PSVRRQLAVTVVK [F8A],1.39

# Sample 3 — technique: RNA Bind-n-Seq; form: RNA; sample: in vitro; concentration: 365 nM; reference: no-protein control; reading: higher = stronger binding
# Target: RNA binding protein fox-1 homolog 2, RRM domain, GST-SBP tag (RBFOX2, Homo sapiens, UniProt O43251-10, residues 100-194)
# Setting: natural RNA segment, single round, ends assumed
# Target sequence (chain): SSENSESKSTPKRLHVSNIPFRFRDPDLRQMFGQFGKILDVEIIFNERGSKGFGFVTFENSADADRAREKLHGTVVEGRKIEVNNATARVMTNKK
Sequence,RBNS enrichment (R)
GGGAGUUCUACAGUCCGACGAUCAGUGAUGUAAAAAUGAAAAGCCAAAUAAAAAUCUUUGGAAAAGAGCCUGGAGGUUCAACGAGGAAAACAGUCUGUCCCCUCACUGGGUAAACUCUUGCCACUGUUUCUGUUGGAAUUCUCGGGUGCCAA,0.582
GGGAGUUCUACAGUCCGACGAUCUUAGAAAACAUUCAGCCAUCCUAGAAACUAGCAAUAUUUAUUUUUGCCUCUUUCGUUUUACCUUCAUUUUUAGAUGAGGUAAAUGUUUUGUCUUUUACUUAAGGGUACUAUGGAAUUCUCGGGUGCCAA,0.294
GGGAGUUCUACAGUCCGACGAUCAGGACUAAGCAAGGGAAGGGAGGACCGAUUGCCAUCGGCCUUCAUGCUCUGGUUAGGGUGAGGUUGGGGCCAAGAGGACAGGGCCUGGCAGAUCUUCAGUCAUUGGGAAGUGGAAUUCUCGGGUGCCAA,0.412
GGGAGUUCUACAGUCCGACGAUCAUUUAGAUGGAAUCUUACCACGACUUGAGGCUAGGACCACCCACUUCCUCUUUCCCAGCCCUAUUUCUGGGAUCCCAGAGGGGCAGGGGUGGUGGAGGCGGUGCCGGGACUGGAAUUCUCGGGUGCCAA,0.202
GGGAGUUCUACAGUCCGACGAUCCCACUUUGGUGGCUGUUGUUGCAGAAGACUAAACUGCUUUGGACUAUUUAACGAUUGCCUGACAGUCGAGUGUUUCCAAUGUGGUCGUCCAGUUUCUAUGGCCUUGCUGUUGGAAUUCUCGGGUGCCAA,0.181
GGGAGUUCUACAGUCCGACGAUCCCUGUAGCACUAGAAAUGCUUUCCUAUUUAAAAUAAACAUUAAAUUUUAAAAUAGAGCUUUGUAUACUAUGUAAGCAGUUUUAUAUCAGCUUUGUAAAAGCUUUGGUGUUUGGAAUUCUCGGGUGCCAA,0.661
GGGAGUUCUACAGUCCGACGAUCGUGUAAGGCCAGGCUUUAGUGGUCAUUAGACACCACAUGUGUUAUGAGCCCCUUACCCAUAGGGUUGGGGGUGGGAAGAGAAGCAUAUUUUUUUGCCAUUCCGGAAGCAAUGGAAUUCUCGGGUGCCAA,0.598
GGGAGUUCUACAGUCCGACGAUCUUUGCCAAGGACGUUUGUCUCAAGGGAAAAGCAGUUUUCUGUGGGGCUUAUUAAAGGAAUGUUGGUUUACAUUGUCUUCAAAGACAAGUAUAGAAGCUGUAUGUGUAAGGUGGAAUUCUCGGGUGCCAA,0.859

# Sample 4 — technique: DHFR PCA, deep sequencing; sample: yeast; together with: (+)-ABA 0.0091 µM; reference: wild-type fitted maximum; reading: higher = stronger binding
# Target: ABI1, truncated, D143A, DHFR fusion (Arabidopsis thaliana)
# Setting: methotrexate growth selection, single substitutions
# Starting sequence: PYL1, truncated, DHFR fusion (Arabidopsis thaliana); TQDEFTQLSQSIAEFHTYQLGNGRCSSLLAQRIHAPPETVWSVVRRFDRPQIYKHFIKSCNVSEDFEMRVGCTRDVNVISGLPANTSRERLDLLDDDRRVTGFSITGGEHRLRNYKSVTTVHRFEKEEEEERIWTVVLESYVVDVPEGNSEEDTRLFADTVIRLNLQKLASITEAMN
Variant,relative binding score
Y141W,-0.313%
N114G,15.7%
A35T,1.71%
S171Q,48%
A30D,2.8%
Q51Y,-16.3%
E14P,4.81%
I12L,-3.34%
P50G,-4.39%
N22C,3.54%
T1G,20.6%
A84E,17.8%
E125G,35.5%
T120P,-3.67%

# For quick reference, copied from above (sample 4):
Variant,relative binding score
A30D,2.8%
Q51Y,-16.3%
E14P,4.81%
I12L,-3.34%
P50G,-4.39%
N22C,3.54%
T1G,20.6%
